Results of several laboratories.
Numbered parts are unrelated; each lists some results of a single study.

Sample 1
Target: Interferon regulatory factor 3, full length, phosphomimetic (IRF3, Homo sapiens, UniProt Q14653, residues 1-427, S386D/S396D/S398D/S402D/T404D/S405D)
Technique: protein-binding microarray
Form: double-stranded DNA, one strand shown
Sample: in vitro
Tested at: 2540 nM top
Notes: 60-bp whole probe
Together with: salmon DNA 0.4 mg/ml
Baseline: random background probes
Direction: higher = stronger binding
Endpoint: fitted relative affinity
All sequences stand within: GCCTAGCAC … GTCTTGATTCGCTTGACGCTGCTG
Construct (chain): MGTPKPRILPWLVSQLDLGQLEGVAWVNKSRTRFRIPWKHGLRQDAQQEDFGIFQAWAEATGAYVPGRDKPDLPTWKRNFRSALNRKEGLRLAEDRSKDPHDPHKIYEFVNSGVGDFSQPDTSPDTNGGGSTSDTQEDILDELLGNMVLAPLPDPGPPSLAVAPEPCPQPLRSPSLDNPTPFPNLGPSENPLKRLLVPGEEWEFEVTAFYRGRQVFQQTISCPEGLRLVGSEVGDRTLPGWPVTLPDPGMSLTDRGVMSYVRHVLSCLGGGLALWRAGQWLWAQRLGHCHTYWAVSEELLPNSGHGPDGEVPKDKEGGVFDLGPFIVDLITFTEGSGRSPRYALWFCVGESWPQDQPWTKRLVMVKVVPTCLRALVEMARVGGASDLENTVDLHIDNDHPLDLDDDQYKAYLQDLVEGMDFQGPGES
TTAGATTTCGGGACTGGATAAGTGCTA: 1.52 z-score
TCATTTATATGCTATGTAACTGTGCTA: 1.2 z-score
TCATGATCCATTTTGGTACTGTGCTAG: 2.91 z-score
ATAGGTTTCGACTATCGGTTAGTGCTA: 2.67 z-score
TTAGATTTCGGTCTCGGTTAGTGCTAG: 4.88 z-score
TTAGGTAGCGGGACTGGGTTAGTGCTA: -0.747 z-score
TTCGATCTCAGTATCGATTAGTGCTAG: 1.58 z-score
TTGGGTATCGACTATCGGTTAGTGCTA: -0.146 z-score
GACGATATCATTTTCGAGACGTGCTAG: 2.29 z-score
GACGGACTGGACTATCGGGAGGTGCTA: -0.553 z-score
TTTGGTTTCGACTTTCGGTTAGTGCTA: 4.38 z-score
GACGGTATCGGGTATCGCGACGTGCTA: 1.5 z-score
TTAGAAATGAGTTTCGATTAGTGCTAG: 2.99 z-score
GACGATATCGGGTATTGAGACGTGCTA: 0.0733 z-score
TCATATATGTGATTAAAACTGTGCTAG: 0.531 z-score
GACGAACTGGGGTTTCCAGACGTGCTA: 0.805 z-score
GACGGTCTCGGTTTAGGGACGTGCTAG: 1.99 z-score
TGTGCTTTCCTGATGGTTCTGTGCTAG: 1.39 z-score
TCATTTACCACATTCTCACTGTGCTAG: 2.37 z-score
TTAGGTCTCATACTGCTTTAGTGCTAG: 0.478 z-score
TTAGATCTCAGTTTCGTTTAGTGCTAG: 3.75 z-score
TCATGCTTGCGTCTGGGACTGTGCTAG: -0.827 z-score

Sample 2
Target: Histone acetyltransferase KAT6A, winged helix 1, GST fusion (KAT6A, Homo sapiens, UniProt Q92794, residues 1-85)
Technique: protein binding microarray
Form: double-stranded DNA, one strand shown
Sample: in vitro
Tested at: not given
Notes: 8-mer, flanks averaged, mean of 2 arrays, mostly near background
Baseline: not given
Direction: higher = stronger binding
Endpoint: E-score
Target sequence (chain): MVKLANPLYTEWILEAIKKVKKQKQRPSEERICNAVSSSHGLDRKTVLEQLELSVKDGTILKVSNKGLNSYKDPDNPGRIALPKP
ATTTCAAA: -0.18
ACTGTGCC: -0.0791
CCCATTAC: -0.0642
ATCGACTC: -0.245
CGACGGAG: 0.334
GCCGACTA: 0.125
ATCGTGGA: -0.215
TAAGTCAA: -0.214
AAGTCAAG: -0.198
CATCGAGC: 0.011
ATGCGGAC: 0.236
ATCATGTC: -0.0341
TCCATAGA: -0.0489
ACTTGACG: 0.0627
GCTTCGCC: 0.228
ACAAATAG: -0.0553
TACGCCGA: 0.304
CATAGCGC: 0.256
ACGAGTGC: 0.0979
ATCCGTCA: 0.0575
CTCCATCC: -0.114
CCAAGGCA: -0.171
ACGGACGC: 0.26
ACAGGAGT: -0.162

Sample 3
Target: Phosphate system positive regulatory protein PHO4, full length, GST-tagged (PHO4, Saccharomyces cerevisiae, UniProt P07270, residues 1-312)
Technique: competition protein-binding microarray
Form: double-stranded DNA, one strand shown
Sample: in vitro
Tested at: 2 µM
Notes: whole 60-bp probe, lowest competitor level
Together with: Cbf1 competitor, 0.05 µM
Direction: higher = stronger binding
Endpoint: fluorescence intensity
Target sequence (chain): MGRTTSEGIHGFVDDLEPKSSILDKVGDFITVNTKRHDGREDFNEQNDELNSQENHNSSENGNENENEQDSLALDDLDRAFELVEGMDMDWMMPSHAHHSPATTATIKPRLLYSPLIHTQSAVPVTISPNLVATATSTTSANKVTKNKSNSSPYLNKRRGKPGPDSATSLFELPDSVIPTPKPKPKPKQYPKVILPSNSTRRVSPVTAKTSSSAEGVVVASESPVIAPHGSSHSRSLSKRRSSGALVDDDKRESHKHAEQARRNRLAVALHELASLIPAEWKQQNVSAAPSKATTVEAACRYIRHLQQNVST
CATACCCAACCTTGAAACGTGGGTGAAGATATTTGTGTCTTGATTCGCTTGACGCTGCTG: 13200 a.u.
CATACCCAACCTTTTCACGTGTGCTAAGATATTTGTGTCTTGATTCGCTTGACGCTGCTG: 15600 a.u.
TGCGCAACAACTTTTCACGTGAGCTTATGTCTAGAAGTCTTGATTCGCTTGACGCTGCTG: 10200 a.u.
AGTAGCTAAGCGAGTCACGGGACTAAAAGGTAAAAAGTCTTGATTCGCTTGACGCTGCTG: 5570 a.u.
AAATTACTAAGTTGGGATGTGGGTGACGCCGTATGAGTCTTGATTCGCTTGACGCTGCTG: 4770 a.u.
GCAATTCCTTTCTGAAACGTGAAAAGATACCGTCAAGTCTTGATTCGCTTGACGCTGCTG: 7240 a.u.
GTCTTGTCTCATTGGAAAGTGGGTGTCCCCACTTCAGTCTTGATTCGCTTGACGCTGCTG: 4590 a.u.
ACTGCCATGGGTTTTGGCGTGGGTATGTTCACCTCAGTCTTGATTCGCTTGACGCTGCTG: 5130 a.u.
AACTTGTGCTTGAATCAAATGGTTACAGTGGACAGTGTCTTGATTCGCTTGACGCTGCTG: 4200 a.u.
TGCGCAACAACTTGCACGGTGGGTGTATGTCTAGAAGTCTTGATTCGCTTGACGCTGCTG: 6270 a.u.
TCGGTTTTTCTTACCGTCGTGGCCGTAGAGGTGAGGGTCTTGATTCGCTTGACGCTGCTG: 7060 a.u.
TGCGCAACAACTTGATTCGTGGGTGTATGTCTAGAAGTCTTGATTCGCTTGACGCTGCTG: 5690 a.u.
CGGCAAATCCTCTTCCACATGTGTGTCTTTGAATCAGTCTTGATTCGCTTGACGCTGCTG: 10400 a.u.

Sample 4
Target: RNA binding protein fox-1 homolog 2, RRM domain, GST-SBP tag (RBFOX2, Homo sapiens, UniProt O43251-10, residues 100-194)
Technique: RNA Bind-n-Seq
Form: RNA
Sample: in vitro
Tested at: 365 nM
Notes: natural RNA segment, single round, ends assumed
Baseline: no-protein control
Direction: higher = stronger binding
Endpoint: RBNS enrichment (R)
Residues (chain): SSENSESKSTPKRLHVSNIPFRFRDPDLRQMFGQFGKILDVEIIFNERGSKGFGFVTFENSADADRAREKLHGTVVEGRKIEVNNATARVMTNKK
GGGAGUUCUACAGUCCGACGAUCCUCAUGGUCAUUCUGUCUUACCUUAGUGGCUUGACAGUACUUACUAUAGCUCCUGAGGGAAGCCAAUCAACUUCUGUUUUCCUACCUGACCUGCAGGGCAUGAUGGAUCAUGGAAUUCUCGGGUGCCAA: 0.326
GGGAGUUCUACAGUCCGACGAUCUGUGUUUAAGUUCUCGUAUCCUUGGUGGACACGGACACUAAGAAUCAACUAUGUAGUUGAUUUUUUUUUGCCAGAAAUUAUAAGUAUUCUACAAUAAAUCUUUAAAUUUGUGGAAUUCUCGGGUGCCAA: 0.381
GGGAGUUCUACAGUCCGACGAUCAUACAUGCCACCACACAAAGACAUACACAUAUGCACAUAAUUAAAAACUAAAAAUGAAUCAUAAAAAACAAAUGGGUACAUGAUAUGGUAAGAUAAAUGAGGGGGAAAAAUGGAAUUCUCGGGUGCCAA: 0.727
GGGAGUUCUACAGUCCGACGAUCUCUGGCCUUGUAUUUCACACCCUGCUCAGUAUGGCUAGCCAGCAGUCCUGAGUAGGAGUCCAGGACUCCCACUGUCUCAAUCUGCAAAUUGUUCCUAUCCAGGUUCAGGGUGGAAUUCUCGGGUGCCAA: 0.403
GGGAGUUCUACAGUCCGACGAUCUCAGUGAAAAAUGUUAAGAAGUUGAUGCAAGCUGCAUGCUCCUUGUUAAGAUGCAGGCUUUGCAUAUCACCAGGUCACUUAGAAUAUUCUAACAGUUACUCUGAAGAUGUUGGAAUUCUCGGGUGCCAA: 2.35
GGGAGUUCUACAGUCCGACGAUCAGCCACAAGGCGAAACGGCCAGAUUCUCACUCAAGGUCGUUCUCACUCCUUUUCCUGUCCCGUUUCCAGUCCCACUGAGCCAUUCACUUCUGCUGAACCAUUUUUCUUAGUGGAAUUCUCGGGUGCCAA: 0.379
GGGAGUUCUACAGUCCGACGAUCGUACCGGGGCAUUGCCAGUCACCUGAGCUAAGGAAGCAGGCAGGCUGGUGGUUCUUCUGUUCUCAAGCCUUUCAGGUGAGGACACAUGGCCUGGUGAUGCAGCUGGCUGGUGGAAUUCUCGGGUGCCAA: 0.433
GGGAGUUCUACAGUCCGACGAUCGAAUUCUUGAUAAAUGGCUAAUGCUUUUCUCUCACACUGCUAAUCUUUGGAUGGAAACCAUUCUUUAUAUUGAUGGACAGUUUUCAGAAAACUAUCAACAGGUGUACAAGUGGAAUUCUCGGGUGCCAA: 0.235
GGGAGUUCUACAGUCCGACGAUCCUAUAUUGAUAUUAGAAGAUAUUUGUUUUUUAAAAUAUAUUGAUGUAUGAUAAAGAUGAUCUAAUUUGUGAAUGCAUAUGUAUGUGUGGUUACUUUUUAUAAUGUGAAAUUGGAAUUCUCGGGUGCCAA: 0.8
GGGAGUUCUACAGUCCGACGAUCCAUGUCAACUCCUGUACUUCCCUUACUCUGUUGCCUUUCUUGAGAUGCAUUGUCCUGCUAACCCACAAACCUGUUUGGAAAUAAACAUGGAAGAAUAUCUGGCAGGCUUAUGGAAUUCUCGGGUGCCAA: 0.332
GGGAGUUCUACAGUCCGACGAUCCUCAAUGCCUGGGUUACAUAGGAAAUGCACCCUGAGGUUUUAAUAAAGCCCCUAUGGCUAUAACUUUAAAUAAACUAAACCAAAAAUGUUAUUGAUGUUUUAUAUAGAGAUGGAAUUCUCGGGUGCCAA: 1.23
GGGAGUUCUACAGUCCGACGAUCCAGCUUCACAGUCGCCUCAUCUCCUAAGCACUCCUUUCCCCUGCUGUCCCCUUCGACCCUCAGCCCUCUGGUGCCGCUCUGCCCGAUGCACAGCCACCUCAGCCAGCCCCUGGAAUUCUCGGGUGCCAA: 0.403

A few entries again (sample 2):
ATCCGTCA: 0.0575
CTCCATCC: -0.114
CCAAGGCA: -0.171
ACGGACGC: 0.26
